Measured values collected from several papers.
Every numbered part comes from another study and shows a few of its results, in no order. “And” joins repeats or separate records; there may be more than shown.

Series 1
Cell line: mouse MPNST tumor cells
Technique: high-content nuclear imaging
Refers to: cell number
Tested at: 10 µM
Time: 12 h
Setting: mean of 2 replicates
Reference: plate mean
Direction: higher = more cells
| SMILES | nuclei count |
| --- | --- |
| CC(=O)Oc1ccccc1C(=O)Nc1ncc([N+](=O)[O-])s1 | 1.98 z-score and 5.58 z-score |
| COc1cc2ncnc(Nc3ccc(F)c(Cl)c3)c2cc1NC(=O)/C=C/CN1CCCCC1 | -6.34 z-score |
| CCOC(=O)C1=C[C@@H](OC(CC)CC)[C@H](NC(C)=O)[C@@H](N)C1 | 1.55 z-score |
| CCOC(=O)n1ccn(C)c1=S | 2.81 z-score |
| C[C@H](c1ccc(F)cc1CCCC(=O)O)N(c1cc(F)ccc1F)S(=O)(=O)c1ccc(Cl)cc1 | 1.08 z-score |
| CN1CCC[C@@H]1CCO[C@](C)(c1ccccc1)c1ccc(Cl)cc1 | -3.93 z-score and -1.07 z-score |
| CN[C@@H]1[C@H](O)[C@H](NC)[C@H]2O[C@@]3(O)C(=O)C[C@@H](C)O[C@H]3O[C@@H]2[C@H]1O | 0.753 z-score |
| O=C(NC[C@H](O)CN1CCc2ccccc2C1)c1ccnc(NC2CCC2)c1 | 4.73 z-score and 4.01 z-score |
| CCCC(=O)C1CCN(c2ncnc3c2CN(C(=O)c2ccc(-c4ccccc4)cc2)CC3)CC1 | 1.82 z-score |

Series 2
Species: mouse
Sample: microsomes or S9
Tested at: 2 µM
Time: 0.5 h
| Compound | remaining compound |
| --- | --- |
| COC(=O)c1coc(C(=O)N(C)c2ccc(C)c(N(C)C)c2)c1 | 9.36% |
| Cc1cnn(CCCn2ncc(N(C)C)cc2=O)c1 | 9.65% |
| COc1cc2[nH]c3c(=O)n(-c4ccccc4)ncc3c2cc1OC | 62.3% |
| CS(=O)(=O)N1CCC[C@H]1C(=O)NCCCn1nnc2ccccc21 | 87.9% |
| Cc1cc(=O)c(OCC(=O)Nc2ccc3[nH]c(CC(C)C)nc3c2)c[nH]1 | 53.6% |
| CCS(=O)(=O)N1CCN(c2ccc(Cl)c(Cl)c2)CC1 | 66.4% |
| CC1CC(=O)N(Cc2ccc(Br)cc2)c2ccccc2N1 (centres unmarked) | 1.46% |
| CC(C)(C)Nc1ncc(-c2cnn(C3CCN(C(=O)OC(C)(C)C)CC3)c2)cc1C(=O)O | 58.2% |
| CCCN(CCC)C(=O)c1cc2cc(Cl)ncc2n1CCOC | 23.1% |
| Cc1ccc2nc3c(cc(C(=O)N4COCC4(C)C)n3Cc3ccccc3)c(=O)n2c1 | 0.113% |
| CCOc1cc(CNCCc2nc(C)oc2C)ccc1OCC(=O)Nc1ccccc1 | 4.68% |

Series 3
Target: 5-hydroxytryptamine receptor 1E (HTR1E, Homo sapiens, UniProt P28566)
Sequence of UniProt P28566 (whole entry, looked up): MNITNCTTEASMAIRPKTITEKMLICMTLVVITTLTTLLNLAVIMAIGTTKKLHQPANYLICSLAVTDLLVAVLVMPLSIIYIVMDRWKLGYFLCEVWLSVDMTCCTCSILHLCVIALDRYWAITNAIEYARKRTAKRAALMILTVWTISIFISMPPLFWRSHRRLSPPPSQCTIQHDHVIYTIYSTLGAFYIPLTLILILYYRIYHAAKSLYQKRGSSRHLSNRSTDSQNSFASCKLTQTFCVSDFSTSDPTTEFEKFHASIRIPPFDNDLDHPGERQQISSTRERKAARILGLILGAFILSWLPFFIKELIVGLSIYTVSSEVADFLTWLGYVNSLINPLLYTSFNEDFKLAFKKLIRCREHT
Effect on: ligand displacement
Technique: radioligand
Tested at: 10 µM
| SMILES | inhibition [%] |
| --- | --- |
| Cc1nc(Cc2cccc(C(F)(F)F)c2)sc1-c1ccc(C(N)=O)nc1 | 9.13 |
| O=C(O)c1cc(-c2ccc(C3CCNCC3)cc2)c2ccc(-c3ccc(C(F)(F)F)cc3)cc2c1 | 13.4 |
| COc1cccc(CNC(=O)c2nc3scc(COCc4ccc(C(=O)O)cc4)c3c(=O)[nH]2)c1 | -0.179 |
| O=C(NC[C@@H]1[C@H]2CN(C(=O)OCc3cc(C(F)(F)F)cc(C(F)(F)F)c3)C[C@@H]12)c1ccc2[nH]nnc2c1 | 33.6 |
| O=C(Nc1cccnn1)N1CC(CC=Cc2cncc(Oc3ccc(C(F)(F)F)cn3)n2)C1 | 0.84 |
| NS(=O)(=O)c1cc(NC(=O)C2(c3ccccc3Cl)CC2)ccc1Oc1cccc(Cl)c1 | -1.46 |
| C[C@H](NC(=O)Nc1cc2[nH]ncc2c(CO)n1)c1ccccn1 | -8.44 |
| CC(=O)C1=C(C)N(c2cccc(C(F)(F)F)c2)C(=O)N[C@@H]1c1ccc(C#N)nc1 | 7.74 |
| c1ccc(N2CCN(Cc3nc4ccccc4[nH]3)CC2)nc1 | -8.72 |
| O=C([C@H]1C[C@H](O)CN1c1ccc(Cl)cc1)N1CC2COCC(C1)N2Cc1ccc(Cl)cc1 | -25.4 |
| CCOCCn1cc(C(=O)Nc2ccc(-n3nc(-c4cccnc4)cc3C(F)(F)F)cn2)ccc1=O | -4.17 |
| CN([C@@H]1CCc2c(CC(=O)O)c3ccccc3n2C1)S(=O)(=O)c1ccc(F)cc1 | 35.8 |
| CNCc1ccccc1-c1csc([C@@H](C)Nc2nc(C)nc3cc(OC)c(OC)cc23)c1 | 5.81 |
| Cc1cnc(-c2cc(Cl)ccc2F)cc1-n1c(=O)n(CC(N)=O)c2cnccc21 | -5.81 |
| O=C(NS(=O)(=O)c1ccc(NCC2CCOCC2)c([N+](=O)[O-])c1)c1ccc(N2CCN(Cc3ccc(C(F)(F)F)cc3-c3ccc(Cl)cc3)CC2)cc1Oc1cnc2[nH]ccc2c1 | 10.4 |
| CN([C@@H]1CCc2c(CC(=O)O)c3cc(S(C)(=O)=O)ccc3n2C1)S(=O)(=O)c1ccc(F)cc1 | 5.5 |
| O=C(O)[C@@H]1[C@@H](Cn2nnc3ccccc3c2=O)CC[C@H]1C(=O)c1ccc(OCCC2CCOCC2)cc1 | 3.94 |
| Cc1c(C(=O)O)cc(-c2ccc(C3CCNCC3)cc2)c2ccc(-c3ccc(C(F)(F)F)cc3)cc12 | 3.48 |
| C[C@H](NC(=O)c1cnc2n1[C@](C)(Cc1ccc(C#N)cc1)C(=O)N2c1cc(Cl)c(F)c(Cl)c1)C(=O)NC1(c2ccccn2)CC1 | 17.7 |
| CCCCN(CCCC)C(=O)CN1C[C@H](c2cc(OC)c3c(c2)OCO3)[C@@H](C(=O)O)[C@@H]1CC(C)(C)CCC | 3.64 |

Series 4
Target: RAC-alpha serine/threonine-protein kinase (AKT1, Homo sapiens, UniProt P31749)
Sequence of UniProt P31749 (whole entry, looked up): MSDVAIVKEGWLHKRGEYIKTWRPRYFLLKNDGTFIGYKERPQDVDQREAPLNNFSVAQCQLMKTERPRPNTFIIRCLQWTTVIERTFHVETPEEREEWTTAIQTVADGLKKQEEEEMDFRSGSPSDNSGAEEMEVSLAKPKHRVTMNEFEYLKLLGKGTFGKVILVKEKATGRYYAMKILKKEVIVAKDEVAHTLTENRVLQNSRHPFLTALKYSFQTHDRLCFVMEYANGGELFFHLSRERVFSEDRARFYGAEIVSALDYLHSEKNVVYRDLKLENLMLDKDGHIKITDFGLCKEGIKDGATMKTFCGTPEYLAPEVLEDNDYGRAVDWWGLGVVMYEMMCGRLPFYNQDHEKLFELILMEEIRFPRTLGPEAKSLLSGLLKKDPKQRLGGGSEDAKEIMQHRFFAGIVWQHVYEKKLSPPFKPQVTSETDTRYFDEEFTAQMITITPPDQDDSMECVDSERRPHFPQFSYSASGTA
Effect on: enzyme activity
Action: inhibitor
Tested at: 0.5 µM
Reference: control
| SMILES | remaining activity [%] |
| --- | --- |
| Cc1nc2cc3nc(-c4cccs4)cnc3cc2n1C | 114 |
| O=C(NC(NC(=S)Nc1ccc(F)c([N+](=O)[O-])c1)C(Cl)(Cl)Cl)C(c1ccccc1)c1ccccc1 (centres unmarked) | 118 |
| COc1cc2c(cc1OC)-c1[nH]nc(Nc3cccc(F)c3)c1C2 | 93.3 |
| COc1cc2ncnc(Nc3ccc(O)c(Br)c3)c2cc1OC | 94 |
| Cc1cn(-c2cc(NC(=O)c3ccc(C)c(Nc4nccc(-c5cccnc5)n4)c3)cc(C(F)(F)F)c2)cn1 | 99.7 |
| Cc1cc2ncc(-c3ccccc3)nc2cc1C | 101 |
| O=C(Nc1cccc(Nc2nccc(Nc3cccc(C(F)(F)F)c3)n2)c1)C1CC1 | 109 |
| O=C1c2ccccc2-c2n[nH]c3cccc1c23 | 102 |
| O=C1C(Cl)=C(N2C(=O)CCC2=O)C(=O)c2ccccc21 | 103 |
| c1ccc(-c2cnc(Nc3ccc(OCCN4CCCC4)cc3)s2)cc1 | 101 |
| CCN(CC)CCNC(=O)c1c(C)[nH]c(/C=C2\C(=O)Nc3ccc(Cl)cc32)c1C | 102 |
| c1ccc(-c2[nH]ncc2-c2ccnc3ccccc23)nc1 | 100 |
| N#C/C(=C\c1ccc(O)c(O)c1)C(=O)NCc1ccccc1 | 101 |
| CN(C)C[C@H]1CCn2c(c(C3=C(c4cn(C)c5ccccc45)C(=O)NC3=O)c3ccccc32)C1 | 98.7 |
| COc1cc2ncnc(Nc3cccc(Cl)c3)c2cc1OC | 89.9 |
| O=c1cc(-c2cccc3c2Sc2ccccc2S3)oc(N2CCOCC2)c1 | 113 |
| Cn1nc2c3c(cccc31)C(=O)c1ccccc1-2 | 99.1 |
| N#Cc1c(NC(=O)c2cccc3ccccc23)sc2c1CCCC2 | 101 |
| CCOc1nc(NC(=O)Cc2cc(OC)ccc2OC)cc(N)c1C#N | 102 |
| Ic1cccc(CSc2nnc(-c3ccncc3)o2)c1 | 98.6 |
| CCN(CC)C(=O)c1ccc(Nc2nc(OCC3CCCCC3)c3[nH]cnc3n2)cc1 | 98.8 |
| Nc1cccc(-c2cc3c(Oc4cccc(O)c4)ncnc3[nH]2)c1 | 92.5 |

Some of these lines once more (series 4):
| SMILES | remaining activity [%] |
| --- | --- |
| CCN(CC)CCNC(=O)c1c(C)[nH]c(/C=C2\C(=O)Nc3ccc(Cl)cc32)c1C | 102 |
| O=C1C(Cl)=C(N2C(=O)CCC2=O)C(=O)c2ccccc21 | 103 |
| COc1cc2ncnc(Nc3cccc(Cl)c3)c2cc1OC | 89.9 |
| Cc1nc2cc3nc(-c4cccs4)cnc3cc2n1C | 114 |
| O=C1c2ccccc2-c2n[nH]c3cccc1c23 | 102 |
| Cn1nc2c3c(cccc31)C(=O)c1ccccc1-2 | 99.1 |
| N#C/C(=C\c1ccc(O)c(O)c1)C(=O)NCc1ccccc1 | 101 |
| CN(C)C[C@H]1CCn2c(c(C3=C(c4cn(C)c5ccccc45)C(=O)NC3=O)c3ccccc32)C1 | 98.7 |
